# Results from different studies.
# Each line is one published result; not all experiments were run side by side. Numbers after ± are the reported error.
# Target: Cytochrome P450 2B6 (CYP2B6, Homo sapiens, UniProt P20813)
# One construct used (P20813 1-491): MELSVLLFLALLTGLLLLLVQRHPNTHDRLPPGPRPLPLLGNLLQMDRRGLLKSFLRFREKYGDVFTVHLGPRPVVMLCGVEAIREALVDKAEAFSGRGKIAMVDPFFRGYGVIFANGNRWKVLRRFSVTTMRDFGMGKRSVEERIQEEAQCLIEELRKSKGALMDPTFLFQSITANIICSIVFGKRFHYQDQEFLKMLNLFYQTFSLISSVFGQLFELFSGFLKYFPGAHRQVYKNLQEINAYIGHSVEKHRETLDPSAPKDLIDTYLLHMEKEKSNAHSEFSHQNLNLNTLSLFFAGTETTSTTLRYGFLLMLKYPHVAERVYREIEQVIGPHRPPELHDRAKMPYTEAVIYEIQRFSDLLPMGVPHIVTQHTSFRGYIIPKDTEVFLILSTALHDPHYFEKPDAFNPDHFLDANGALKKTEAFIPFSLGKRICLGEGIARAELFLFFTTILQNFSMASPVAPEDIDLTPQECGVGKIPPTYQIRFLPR
SMILES,test,system,setting,quantity,result
C[C@@H](c1ccc2nccn2c1)n1nnc2ncc(-c3cnn(C)c3)nc21,inhibitor,pooled human liver microsomes,reversible inhibition,IC50,> 100 µM
C=CC(=O)Nc1cc(Nc2nccc(-c3cn(C)c4ccccc34)n2)c(OCC(F)(F)F)nc1N(C)CCNC,substrate depletion,recombinant human CYP,1 µM,intrinsic clearance,0.32 µL/min/pmol
N#C[C@H](C[C@@H]1CCCNC1=O)NC(=O)[C@H](CC1CC1)NC(=O)c1cc2cccc(Cl)c2[nH]1,NADPH metabolic stability,,"2 µM, pH 7.4, 100 pmol/mL enzyme",intrinsic clearance,< 0.054 µL/min/pmol
CN(C(=O)n1cnc(-c2ccc[n+]([O-])c2)c1)C1CCCCC1,"enzyme activity, inhibitor",pooled human liver microsomes,0.1 to 30 µg/mL,inhibition,no effect
C=CC(=O)N(C)CCOc1c(N)ncnc1-c1cc(F)cc(NC(=O)c2ccc(C3CC3)cc2F)c1C,,recombinant human CYP,"pH 7.4, scaled to liver microsomes",relative unbound intrinsic clearance,1.5 µL/min/mg
Cc1cc(C)c(CNC(=O)c2cc(Cl)c3c(c2C)O[C@@](C)([C@H]2CC[C@H](N(C)C)CC2)O3)c(=O)[nH]1,,recombinant human CYP2B6,0 and 30 min,CLint,0.00272 µL/min/pmol
C=CC(=O)Nc1cc(Nc2nccc(-c3cn(C)c4ccccc34)n2)c(OCC(F)(F)F)nc1N(C)CCN(C)C,substrate depletion,recombinant human CYP,1 µM,intrinsic clearance,0.27 µL/min/pmol
C[C@H]1CN(C2COC2)CCN1c1ccc(Nc2cc(-c3ccnc(N4CCn5c(cc6c5CC(C)(C)C6)C4=O)c3CO)cn(C)c2=O)nc1,substrate,recombinant enzyme,"1 µM, 60 min",remaining compound,99.4 ± 8.2%

# For quick reference, copied from above:
SMILES,test,system,setting,quantity,result
C[C@H]1CN(C2COC2)CCN1c1ccc(Nc2cc(-c3ccnc(N4CCn5c(cc6c5CC(C)(C)C6)C4=O)c3CO)cn(C)c2=O)nc1,substrate,recombinant enzyme,"1 µM, 60 min",remaining compound,99.4 ± 8.2%
